{"data": "Measured values of several laboratories", "note": "Every numbered part comes from another study and shows a few of its results, in no order."}
{"data": "Set 1", "target": "Replicase polyprotein 1ab, main protease (rep, Severe acute respiratory syndrome coronavirus 2, UniProt P0DTD1)", "observed": "enzyme activity", "action": "inhibitor", "tested at": "20 µM", "notes": "primary screen"}
{"SMILES": "O=C(O)c1ccc(N2C(=O)/C(=C\\c3ccc(-c4ccc([N+](=O)[O-])cc4)o3)C=C2c2ccccc2)cc1", "inhibition [%]": 61.1}
{"SMILES": "COC(=O)C1=C(C)NC(C)=C(C(=O)OCC(C)C)C1c1ccccc1[N+](=O)[O-] (centres unmarked)", "inhibition [%]": 39.7}
{"SMILES": "O=C(O)[C@@H](S)[C@@H](S)C(=O)O", "inhibition [%]": 99.3}
{"SMILES": "O=S(=O)(O)c1cc(I)c(O)c2ncccc12", "inhibition [%]": 27.7}
{"data": "Set 2", "target": "Replicase polyprotein 1ab, nsp13 helicase (rep, Severe acute respiratory syndrome coronavirus 2, UniProt P0DTD1)", "action": "inhibitor", "tested at": "20 µM"}
{"Structure (SMILES)": "CC(=O)N1CCC(C(=O)N(CCCN2CCC(Cc3ccc(C(N)=O)cc3)CC2)c2ccc(C)c(Cl)c2)CC1", "inhibition": "7.54%"}
{"Structure (SMILES)": "CO[C@H]1/C=C/O[C@@]2(C)Oc3c(C)c(O)c4c(O)c(c(/C=N/N=C/N5CCCCC5)c(O)c4c3C2=O)NC(=O)/C(C)=C\\C=C\\[C@H](C)[C@H](O)[C@@H](C)[C@@H](O)[C@@H](C)[C@H](OC(C)=O)[C@@H]1C", "inhibition": "-3.67%"}
{"Structure (SMILES)": "CC(=O)Nc1cccc(-n2c(=O)n(C3CC3)c(=O)c3c(Nc4ccc(I)cc4F)n(C)c(=O)c(C)c32)c1", "inhibition": "1.58%"}
{"Structure (SMILES)": "Cc1cc(F)c(Nc2ncnc3cc(OCc4ccccc4)ccc23)cc1O", "inhibition": "-6.39%"}
{"Structure (SMILES)": "COC(=O)c1cc(OC)c2c(c1-c1c(C(=O)OC)cc(OC)c3c1OCO3)OCO2", "inhibition": "2.44%"}
{"Structure (SMILES)": "CS[C@H]1SC[C@H]2C(=O)N(C)[C@@H](C(C)C)C(=O)OC[C@@H](NC(=O)c3cnc4ccccc4n3)C(=O)N[C@@H](C)C(=O)N(C)[C@@H]1C(=O)N(C)[C@@H](C(C)C)C(=O)OC[C@@H](NC(=O)c1cnc3ccccc3n1)C(=O)N[C@@H](C)C(=O)N2C", "inhibition": "41.8%"}
{"Structure (SMILES)": "CC1=C(C(=O)O)N2C(=O)[C@@H](NC(=O)[C@H](N)c3ccccc3)[C@H]2SC1", "inhibition": "5.41%"}
{"Structure (SMILES)": "O=C(COc1ccc(Cl)cc1)N1CCN(Cc2ccc3c(c2)OCO3)CC1", "inhibition": "-7.31%"}
{"Structure (SMILES)": "C#C[C@]1(O)CC[C@H]2[C@@H]3CCC4=C(CCC(=O)C4)[C@H]3CC[C@@]21C", "inhibition": "2.4%"}
{"Structure (SMILES)": "O=C(NC(NC(=S)Nc1ccc(F)c([N+](=O)[O-])c1)C(Cl)(Cl)Cl)C(c1ccccc1)c1ccccc1 (centres unmarked)", "inhibition": "4.31%"}
{"Structure (SMILES)": "Nc1cc(-c2ccncc2)c[nH]c1=O", "inhibition": "62.4%"}
{"Structure (SMILES)": "C[C@@H]1C[C@H]2[C@@H]3C[C@H](F)C4=CC(=O)C=C[C@]4(C)[C@@]3(F)[C@@H](O)C[C@]2(C)[C@@]1(O)C(=O)COC(=O)C(C)(C)C", "inhibition": "4.99%"}
{"Structure (SMILES)": "CS(=O)(=O)N(Cc1ccco1)CC(O)Cn1c2ccccc2c2ccccc21 (centres unmarked)", "inhibition": "4.28%"}
{"Structure (SMILES)": "O=C(O)COc1ccc(C(=O)c2cccs2)c(Cl)c1Cl", "inhibition": "1.61%"}
{"Structure (SMILES)": "COc1cc2c(cc1C(F)(F)F)N(C(=O)Nc1cc(F)cc(-c3cccnc3)c1)CC2", "inhibition": "-3.4%"}
{"Structure (SMILES)": "CCCN(CCC)CCc1ccc(OC)c(OCCc2ccccc2)c1", "inhibition": "2.44%"}
{"Structure (SMILES)": "CCCn1c(=O)c2[nH]c(-c3cnn(Cc4cccc(C(F)(F)F)c4)c3)nc2n(CC)c1=O", "inhibition": "-0.88%"}
{"data": "Set 3", "target": "Centromere-binding protein 1, full length, N-terminal tag (CBF1, Saccharomyces cerevisiae, UniProt P17106, residues 1-351)", "method": "protein-binding microarray", "form": "double-stranded DNA, one strand shown", "matrix": "in vitro", "tested at": "0.8 µM", "notes": "whole 60-bp probe, no competitor", "direction": "higher = stronger binding", "shared flanks, not repeated": "… GTCTTGATTCGCTTGACGCTGCTG", "UniProt P17106, sequence (whole entry, looked up)": "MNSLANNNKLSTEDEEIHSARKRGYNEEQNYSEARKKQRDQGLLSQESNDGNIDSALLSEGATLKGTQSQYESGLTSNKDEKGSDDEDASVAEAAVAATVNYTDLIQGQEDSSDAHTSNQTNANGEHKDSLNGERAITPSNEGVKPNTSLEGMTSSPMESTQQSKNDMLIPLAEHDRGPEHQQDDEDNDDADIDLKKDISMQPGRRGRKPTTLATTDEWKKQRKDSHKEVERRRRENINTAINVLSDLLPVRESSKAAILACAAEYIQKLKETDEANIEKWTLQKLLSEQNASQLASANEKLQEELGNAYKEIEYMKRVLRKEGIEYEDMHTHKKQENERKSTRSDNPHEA"}
{"Strand": "GAACCAAAGGCTGATCACCTGGTTCGGGCACAATAG", "fluorescence intensity [a.u.]": 1610}
{"Strand": "CTAAAAATTTTTACACTGGTGACAACCTTAATGTTC", "fluorescence intensity [a.u.]": 539}
{"Strand": "CTAATATACTAGTATCACGAATATTACTAAATGTTC", "fluorescence intensity [a.u.]": 514}
{"Strand": "CTATACAAAAAAGAGCACGCTGCTTTATTTATATTC", "fluorescence intensity [a.u.]": 587}
{"Strand": "GAAAGAATGGCAAACCACATGCAAGCATCCAGTTAG", "fluorescence intensity [a.u.]": 580}
{"Strand": "GAAAGGAGAAAGTACTACACGTGTTTTCAGACCTAG", "fluorescence intensity [a.u.]": 3850}
{"Strand": "GAAAAGCAGTAACCCCACGAAATTTTAACCAGTTAG", "fluorescence intensity [a.u.]": 515}
{"Strand": "GAATCATGGAAGTGGCACGTTTGTGCTTCGGCGTAG", "fluorescence intensity [a.u.]": 562}
{"data": "Set 4", "target": "Histone acetyltransferase KAT6A, winged helix 2, GST fusion (KAT6A, Homo sapiens, UniProt Q92794, residues 85-181)", "method": "protein binding microarray", "form": "double-stranded DNA, one strand shown", "matrix": "in vitro", "tested at": "not given", "notes": "8-mer, flanks averaged, mean of 2 arrays, mostly near background", "reference": "not given", "direction": "higher = stronger binding", "Residues (chain)": "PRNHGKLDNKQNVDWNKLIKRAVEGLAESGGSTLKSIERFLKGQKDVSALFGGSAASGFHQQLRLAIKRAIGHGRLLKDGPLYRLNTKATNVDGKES"}
{"Strand": "CGAACCAG", "E-score": 0.185}
{"Strand": "CCAGCATC", "E-score": 0.072}
{"Strand": "CTATCAAA", "E-score": -0.0162}
{"Strand": "AGGCTGAC", "E-score": 0.106}
{"Strand": "AACCTTGT", "E-score": -0.0691}
{"Strand": "ATATCAAG", "E-score": 0.102}
{"Strand": "CTGAGTAA", "E-score": 0.0365}
{"Strand": "ACATCGGC", "E-score": 0.0166}
{"data": "Set 5", "cell line": "HEK-293T/ACE2", "observed": "pseudovirus infection", "organism": "VSV pseudotyped with SARS-CoV-2 spike", "tested at": "concentration not given", "reference": "vehicle-treated"}
{"SMILES": "CS(=O)(=O)c1ccc(C(=O)Nc2ccc(Cl)c(-c3ccccn3)c2)c(Cl)c1", "GFP-positive cells [%]": 18.9}
{"SMILES": "Cc1nccn1CC1CCc2c(c3ccccc3n2C)C1=O.Cl (centres unmarked)", "GFP-positive cells [%]": 102}
{"SMILES": "O=C1CN(/N=C/c2ccc(-c3ccc([N+](=O)[O-])cc3)o2)C(=O)[N-]1.[Na+]", "GFP-positive cells [%]": 76}
{"SMILES": "Cc1ccc(-n2nccn2)c(C(=O)N2CCN(c3nc4cc(Cl)ccc4o3)CC[C@H]2C)c1", "GFP-positive cells [%]": 108}
